Published values pooled from the literature.
A part holds a random share of what one study measured. Positions count from the first letter of the parent shown.

Sample 1
Target: RNA binding protein fox-1 homolog 2, RRM domain, GST-SBP tag (RBFOX2, Homo sapiens, UniProt O43251-10, residues 100-194)
Technique: RNA Bind-n-Seq
Molecule type: RNA
Medium: in vitro
Concentration: 365 nM
Notes: natural RNA segment, single round, ends assumed
Baseline: no-protein control
Direction: higher = stronger binding
Endpoint: RBNS enrichment (R)
Constant ends, left off below: GGGAGUUCUACAGUCCGACGAUC … UGGAAUUCUCGGGUGCCAA
Residues (chain): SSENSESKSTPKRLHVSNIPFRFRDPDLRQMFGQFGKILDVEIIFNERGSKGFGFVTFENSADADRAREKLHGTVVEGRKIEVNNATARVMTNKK
AGCCCUUUUAAAUUUUUUUAUUAUAAACAAAAUGAAGAGAACCCUGUGAGCCUGGUCCUUCUAGCAACCCUCAGUUAAGAUCCUGAGGGACAGGUGCAGCAGCAGCUGGC: 0.413
UGGCUCUUCACAAUCCAUAGGCUUGAAUCUGCAACCUAGUGUAAACUGCCUUGCUUUCCCCGGUUCUUUCCCCUGCUAGCACCUGCUUUCUCAUCCCUAUCUCCAGUCAA: 0.444
GAUGGAAUGCAUCCCACCUUGCCAAAGCACUUACACCAGUUUGACUGUGCUAGCUAAAAGACAAAUUUAAGGGGAGCUCUUCAACAUUAAGGCAGUAUGAUAUCAUGCUU: 0.772
CUCUUUUUAGUUAAUAUACCAAAGCUUAUGAAUAAUUGUUUGUUAAUUGAACAUUUUCAAUUAUAUGCAGACUGACUGAUUCUAAGAUAAAUUCUAAGGAGGUUUCUAAU: 0.457
UUGUCUGAAUGUAAUACAGUCUUCAUUGUACUAUUCAACCCUUUGUUUCUUUCUUUUUCAUUUUGUGAAAAACUCCAUGUUAGUCCUCUUAGAUGACUGCUUAUUUAUGU: 0.691
GGAAGGCAGCCUUUCAGGUAGCAAGAUUAAAUAUUGCUGUUGCCAAAUAGUAUUUGAAAUAAUACCAGAAAACGGGGACCACAGUACUGUUCGAUGUUUUCAAGUGAGAA: 0.323
AGCCACAAGGCGAAACGGCCAGAUUCUCACUCAAGGUCGUUCUCACUCCUUUUCCUGUCCCGUUUCCAGUCCCACUGAGCCAUUCACUUCUGCUGAACCAUUUUUCUUAG: 0.379
CAAGUUCUUGUAUAAUGAAGUCAAUGCCAUCAGGCCAAGGAAAUAAAAUAAUUGCUUACCUUAAAAAUCCACUGAGUUCAGCAAUGUUGCCUUUAUUUUGUAUGUAUUAG: 0.634

Sample 2
Target: CCNF, cyclin fold, Cln2 fusion (human)
Technique: yeast growth competition, sequencing
Medium: yeast
Notes: strong parent motif
Baseline: not given
Direction: higher = stronger binding
Endpoint: normalised enrichment score
Starting sequence: ANKRD17 docking peptide (human); PSVRRQLFVTVVK; partner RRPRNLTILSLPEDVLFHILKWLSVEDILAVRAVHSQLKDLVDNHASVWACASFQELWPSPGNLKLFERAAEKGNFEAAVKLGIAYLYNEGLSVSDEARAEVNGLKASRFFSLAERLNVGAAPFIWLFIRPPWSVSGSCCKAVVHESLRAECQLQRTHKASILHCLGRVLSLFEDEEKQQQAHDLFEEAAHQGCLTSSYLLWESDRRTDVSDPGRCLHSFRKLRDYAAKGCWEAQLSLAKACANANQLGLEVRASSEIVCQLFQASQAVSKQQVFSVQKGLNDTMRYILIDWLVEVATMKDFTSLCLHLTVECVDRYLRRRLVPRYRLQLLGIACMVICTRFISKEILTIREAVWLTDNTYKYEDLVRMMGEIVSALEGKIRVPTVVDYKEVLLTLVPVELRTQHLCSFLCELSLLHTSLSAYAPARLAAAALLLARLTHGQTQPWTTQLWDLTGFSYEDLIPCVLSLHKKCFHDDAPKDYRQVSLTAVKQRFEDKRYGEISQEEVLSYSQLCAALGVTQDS
R5K F8L: 1.88
R4A: 6.63
R5A L7A: 0.444
L7A: 1.8
S2A: 8.64
F8L: 2.44
V3A: 8.47
V9A: 8.58
P1A: 8.02
F8A: 1.63

Sample 3
Target: UBE2U UBC core domain (UniProt Q5VVX9)
Technique: yeast two-hybrid
Medium: yeast
Notes: mostly zero background
Baseline: not given
Direction: higher = stronger interaction
Endpoint: lacZ reporter activity
B1: RNF112 RING domain (UniProt Q9ULX5); chain QPMAPRELPTCSICLERLRDPISLDCGHDFCIRCFSTHRLPGCEPPCCPECRKICKQKRGLR
B2: RNF43 RING domain (UniProt Q68DV7); chain SGSSCSSAPVCAICLEEFSEGQELRVISCLHEFHRNCVDPWLHQHRTCPLCMFNITEGDSFS
B3: TRIM38 RING domain (UniProt O00635); chain STKKMMEEATCSICLSLMTNPVSINCGHSYCHLCITDFFKNPSQKQLRQETFCCPQCRAPFHMDSLRP
B4: RNF5 RING domain (UniProt Q99942); chain ERGGAGATFECNICLETAREAVVSVCGHLYCWPCLHQWLETRPERQECPVCKAGISREKVVP
B5: PEX2 RING domain (UniProt P28328); chain DNTLATSGKECALCGEWPTMPHTIGCEHIFCYFCAKSSFLFDVYFTCPKCGTEVHSLQPLK
B6: ANKIB1 RING domain (UniProt Q9P2G1); chain LSPGDLDTSLCDICMCSISVFEDPVDMPCGHDFCRGCWESFLNLKIQEGEAHNIFCPAYDCFQLVPVDIIE
Target sequence (chain): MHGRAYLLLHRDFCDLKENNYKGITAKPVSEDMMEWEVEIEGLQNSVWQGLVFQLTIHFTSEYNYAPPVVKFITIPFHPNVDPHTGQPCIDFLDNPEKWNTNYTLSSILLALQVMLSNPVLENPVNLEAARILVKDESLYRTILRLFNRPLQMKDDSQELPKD
B1 (RNF112 RING domain): 0
ISNDSETLEECMVCSDMKRDTLFGPCGHIATCSLCSPRVKKCLICKEQVQSRTKIE (MIB1 RING domain (UniProt Q86YT6)): 13200
LKQVSIRENCCSLCCDEVADTQLKPCGHSDLCMDCALQLETCPLCRKEIVSRIRQI (RSPRY1 RING domain (UniProt Q96DX4)): 0
B2 (RNF43 RING domain): 0
B3 (TRIM38 RING domain): 5940
KIKDLNEHIVCCLCAGYFVDATTITECLHTFCKSCIVKYLQTSKYCPMCNIKIHETQPLL (PCGF1 RING domain (UniProt Q9BSM1)): 8720
SYEDKSNDFVCPICFDMIEEAYMTKCGHSFCYKCIHQSLEDNNRCPKCNYVVDNIDHLY (COP1 RING domain (UniProt Q8NHY2)): 0
B4 (RNF5 RING domain): 12500
B5 (PEX2 RING domain): 8240
B6 (ANKIB1 RING domain): 0

Sample 4
Target: ABI1, truncated, D143A, DHFR fusion (Arabidopsis thaliana)
Technique: DHFR PCA, deep sequencing
Medium: yeast
Notes: methotrexate growth selection, single substitutions
Together with: (+)-ABA 0.032 µM
Baseline: wild-type fitted maximum
Direction: higher = stronger binding
Endpoint: relative binding score
Starting sequence: PYL1, truncated, DHFR fusion (Arabidopsis thaliana); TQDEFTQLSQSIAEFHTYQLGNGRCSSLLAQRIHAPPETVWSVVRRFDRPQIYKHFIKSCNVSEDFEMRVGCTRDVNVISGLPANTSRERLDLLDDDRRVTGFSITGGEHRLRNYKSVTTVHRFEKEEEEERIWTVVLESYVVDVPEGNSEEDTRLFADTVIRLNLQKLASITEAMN
F56R: 0.594%
P50V: -5.58%
V142A: 24.2%
K58Y: 3.03%
I57F: -3.81%
T86N: 19.7%
R163E: 5.93%
I33N: -3.36%
N61K: 57.9%
M176N: -2.75%
C25I: 45.1%
L93D: -2.23%
L112Y: 1.37%
V145H: -9.64%
N85G: 21.3%
S27I: -9.28%

Repeated from above (sample 1):
CUCUUUUUAGUUAAUAUACCAAAGCUUAUGAAUAAUUGUUUGUUAAUUGAACAUUUUCAAUUAUAUGCAGACUGACUGAUUCUAAGAUAAAUUCUAAGGAGGUUUCUAAU: 0.457
UUGUCUGAAUGUAAUACAGUCUUCAUUGUACUAUUCAACCCUUUGUUUCUUUCUUUUUCAUUUUGUGAAAAACUCCAUGUUAGUCCUCUUAGAUGACUGCUUAUUUAUGU: 0.691
GGAAGGCAGCCUUUCAGGUAGCAAGAUUAAAUAUUGCUGUUGCCAAAUAGUAUUUGAAAUAAUACCAGAAAACGGGGACCACAGUACUGUUCGAUGUUUUCAAGUGAGAA: 0.323
AGCCACAAGGCGAAACGGCCAGAUUCUCACUCAAGGUCGUUCUCACUCCUUUUCCUGUCCCGUUUCCAGUCCCACUGAGCCAUUCACUUCUGCUGAACCAUUUUUCUUAG: 0.379
CAAGUUCUUGUAUAAUGAAGUCAAUGCCAUCAGGCCAAGGAAAUAAAAUAAUUGCUUACCUUAAAAAUCCACUGAGUUCAGCAAUGUUGCCUUUAUUUUGUAUGUAUUAG: 0.634
